Measurements pooled from the literature.
Numbered parts are unrelated; each lists some results of a single study.

Study 1
Target: Histone acetyltransferase KAT6A, winged helix 2, GST fusion (KAT6A, Homo sapiens, UniProt Q92794, residues 85-181)
Method: protein binding microarray
Molecule type: double-stranded DNA, one strand shown
Medium: in vitro
Tested at: not given
Setting: 8-mer, flanks averaged, mean of 2 arrays, mostly near background
Reference: not given
Reading: higher = stronger binding
Residues (chain): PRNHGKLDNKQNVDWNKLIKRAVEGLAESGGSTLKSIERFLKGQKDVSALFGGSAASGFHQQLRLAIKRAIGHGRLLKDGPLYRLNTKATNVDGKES
| Strand | E-score |
| --- | --- |
| ACACCCAC | 0.0786 |
| CGATTCAG | 0.143 |
| ATGCGGGG | 0.0353 |
| AATCGATT | -0.147 |
| CTTCCCCC | -0.154 |
| ACGTCTAA | -0.174 |
| ATGTTTCA | 0.0307 |
| ACAGCTGA | -0.0899 |

Study 2
Target: Replicase polyprotein 1ab, polymerase (rep, Severe acute respiratory syndrome coronavirus 2, UniProt P0DTD1)
Observed: enzyme activity
Mode: inhibitor
Tested at: 20 µM
| SMILES | inhibition [%] |
| --- | --- |
| CC(=O)Nc1ncc([N+](=O)[O-])s1 | -6.05 |
| O=S(=O)(c1cccc2c(O)nccc12)N1CCCNCC1 | 1.45 |
| NC(=O)[C@@H]1CC[C@@H]2CN1C(=O)N2OS(=O)(=O)O | -3.56 |
| CCC(CC)C(c1ccc(Nc2nc3ccccc3s2)cc1)n1cncn1 (stereo not drawn) | -8.02 |
| O=C(Nc1cc(-c2ccccc2)nn1-c1ccccc1F)c1ccc([N+](=O)[O-])cc1 | 3.48 |
| Fc1ccc(-c2c3cccc(C(F)(F)F)c3nn2Cc2ccc(F)cc2Cl)cc1 | -2.59 |
| COc1ccc2cccc(CCNC(C)=O)c2c1 | 9.62 |
| Cc1cccn2c(=O)c(/C=C(\C#N)c3nc4ccccc4s3)c(Oc3ccc(F)cc3)nc12 | 6.38 |
| C=CCn1c(=O)n([C@@H]2O[C@H](CO)[C@@H](O)[C@H]2O)c2nc(N)[nH]c(=O)c21 | 3.78 |
| CC(C)NCC(O)c1ccc2ccccc2c1 (stereo not drawn) | 1.07 |
| Cc1n[nH]c(C)c1Cc1sc2c(c1C(=O)N1C[C@H](O)CO1)c(=O)n(C)c(=O)n2CC(C)C | -3.18 |
| CN(C)c1ccc(/C=C2\C(=O)Nc3ccccc32)cc1 | 1.98 |
| O=C(O)CCc1c(C(=O)O)[nH]c2cc(Cl)cc(Cl)c12 | 3.67 |
| Nc1ccn([C@H]2C[C@H](O)[C@@H](CO)O2)c(=O)n1 | -0.94 |
| Cc1ccc(-c2csc3ncnc(SCCC(=O)O)c23)cc1 | 3.68 |
| CCCSc1ccc2[nH]c(NC(=O)OC)nc2c1 | -3.58 |
| O=C1Cc2c([nH]c3ccc(Br)cc23)-c2ncccc2N1 | -1.53 |
| Cc1ncc(CN2CC=C(c3ccccc3)CC2)c(N)n1 | -4.29 |
| C[C@@H](O)[C@H]1C(=O)N2C(C(=O)OCOC(=O)C(C)(C)C)=C(SC3CN(C4=NCCS4)C3)[C@H](C)[C@H]12 | -2.62 |
| N#Cc1c(N)nc(SCC(N)=O)c(C#N)c1-c1ccc(OCC2CC2)cc1 | 0.73 |
| CC(C)C[C@H](NC(=O)[C@H](Cc1ccccc1)NC(=O)c1cnccn1)B(O)O | -1.16 |
| COc1ccc(C2CC(c3ccccc3)=NN2c2ccc(S(N)(=O)=O)cc2)cc1 (stereo not drawn) | 1.51 |
| CC[C@@H](C)Nc1cc(C(=O)N[C@H]2C[C@H]3CC[C@@H](C2)N3c2ccc(C(=O)C3CC3)cn2)c(C)cc1C(N)=O | -15.2 |
| O=C(Nc1cc(Cl)cc(Cl)c1O)c1c(O)c(Cl)cc(Cl)c1Cl | -2.84 |
| CCCCCCCCN[C@@H](C)[C@H](O)c1ccc(SC(C)C)cc1 (racemic) | 26.4 |

Study 3
Target: Fragile X messenger ribonucleoprotein 1, C-terminal low-complexity region (Fmr1, Mus musculus, UniProt P35922)
Method: RNA Bind-n-Seq
Molecule type: RNA
Medium: in vitro
Tested at: 200 nM
Setting: whole 134-nt RNA, ends assumed
With: 150 mM LiCl
Reference: input library
Reading: higher = stronger binding
All molecules: 7-deaza-guanosine replaces G
Shared flanks, not repeated: GGGAGUUCUACAGUCCGACGAUC … UGGAAUUCUCGGGUGUCAAGG
| Strand | log2 enrichment |
| --- | --- |
| UCCUGUGCUACACAUCGUAUGUACCGAAUCGGGGAAAAAGGGGAAAGGGGUUUUUGGGGAAAGUAUUAUGUUACGCCGUUCGGAUCUGCA | 0.245 |
| UCCUGUGCUACACAUCGUAUGUACCGAAUCGGGAAAAAGGGAAAAAGGGGAAAAAGGGGAAAGUAUUAUGUUACGCCGUUCGGAUCUGCA | -0.72 |
| CAAGUCCUGUGCUACACAUCGUAUGUACCGAAUCGGGUGGGAAAAAGGGAAAGGGAAAGUAUUAUGUUACGCCGUUCGGAUCUGCACUUC | -0.772 |
| CACAGACAACACGCACCCACACAGACACAGAGGGAAGGGGGUGGGAUGGGGACAGGGUGCACAGCAGGGCGGGGUAGGACCCCAGCCCCU | -0.95 |
| CCUCAAGUCCUGUGCUACACAUCGUAUGUACCGAAUCGGGGCGGCGGGGCGGAAAGUAUUAUGUUACGCCGUUCGGAUCUGCACUUCCAG | -0.74 |
| CACAGACAACACGCACCCGCACAGACACAGAGGGAAGGGGUUGGGAUGGGGACAGGGUGCACAGCAGGGCGGGGUAGGACCCCAGCCCCU | 0.613 |
| CAAGUCCUGUGCUACACAUCGUAUGUACCGAAUCGGCCCCGGCCCCGGGCCCCGGAAAGUAUUAUGUUACGCCGUUCGGAUCUGCACUUC | -1.56 |
| GCAGGAAGUAAAAACAAAUGGAAUUGCUUCGGAUAGUGGCAGGGGUGGGGGUUGCUAAGGAAAGGGUGGGAUGGGAGUGGGUAAAGAGUU | 1.38 |

Study 4
Target: RNA binding protein fox-1 homolog 2, RRM domain, GST-SBP tag (RBFOX2, Homo sapiens, UniProt O43251-10, residues 100-194)
Method: RNA Bind-n-Seq
Molecule type: RNA
Medium: in vitro
Tested at: 365 nM
Setting: natural RNA segment, single round, ends assumed
Reference: no-protein control
Reading: higher = stronger binding
Shared flanks, not repeated: GGGAGUUCUACAGUCCGACGAUC … UGGAAUUCUCGGGUGCCAA
Target sequence (chain): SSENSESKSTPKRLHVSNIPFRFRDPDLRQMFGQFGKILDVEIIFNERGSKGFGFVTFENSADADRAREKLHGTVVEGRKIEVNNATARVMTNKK
| Strand | RBNS enrichment (R) |
| --- | --- |
| GCAAAAGCAAUGGUCGGAUGUAAAUAACAUUUAAAGUAUAGUGCACAUAACUUCCCCGGACUGUUCCAAUCUGAUAAUUUGUAAAUGCUUUAGAGUUUUUUUAAUUAACA | 0.468 |
| GCUUCAGACUCUUAAUGCUUUUAUAUAAAGCUAUCAACUGUAUGUUGAUCACAGUUUAUAAGAAAGAACAAAUCAAGAUUGGCAAUCCUUGCCGAUCUUUUAGAAAUACC | 0.404 |
| GAAGACUUUCUCCACUCUGACCAGAUUUAUAAAAUUUCUCCUUUCAUAGAUUUAGUCAGAAGCUGUUUUACUCUCUUAUCUUACAUUCUAUCUAGCUUCCAUAAUUUAUA | 0.465 |
| GUACUCCCAAACUGACAAUUUUACCUAUUCUGAAAAAGACAUAAAACAGAAUUUGGUAGCACUUACCUCUACAGACACCUGCUAAUAAAUUAUUUUCUGUCAAAAGAAAA | 0.245 |
| GAAUGGAAAGCAUUCCCUGGUAGCUACUUUAAAUACAGGAGCCCUGUAACUUAAUACCAGUAGUCAACCACUGGAUCUCAGUUUUCAUCAAGUAUUUUAAAUAAAUAAUC | 0.24 |
| GCUCCAGACAGACUUACAGAUGCCUUCCUUAGGAGUUCUUGCUUCUUGCGUUGAUACUUUGCCCCAGAAAGGCCUGGGAUUCAUUCUGGUUCUUAUCAGGGUGUGUCCAC | 0.221 |
| UCAGUGUUUAUUUCCUCAAAACAGACUUUGUUAAUGUAGGAAAUCUCUCCAAGUGGAAACGUGCUAACUUUUUCUGUAAAUCUGAAAUAAAAGGUGCUGUUCCUUCCUCU | 0.203 |
| UUCUACUUUCAUUUUGUAUUUCUGGUCUGUGAAAAUGAUUUAAUAAAGGGAACUGACUUUGGAAACCUGUCCUCAUGCUUUCUUUGUAGCCUUGGUGUGUUGCUCCCACU | 1.22 |

Study 5
Organism: SARS-CoV-2
Observed: cytopathic effect
Cells: Vero E6
Tested at: 10 µM
| SMILES | inhibition [%] |
| --- | --- |
| O=c1c2ccccc2sn1-c1ccccc1 | -29.8 |
| O=C1c2c(O)cc(O)cc2O[C@H](c2cc(O)c(O)c(O)c2)[C@H]1O | 1.1 |
| C=CCN1CCc2cc(O)c(O)cc2C(c2ccccc2)C1 (stereo not drawn) | -1.9 |
| O=C(c1cc(O)c(O)c(O)c1)c1ccc(O)c(O)c1O | 3.7 |

Study 6
Cell line: HEK-293T
Observed: pseudovirus infection
Method: FDA-approved drug library screen
Organism: VSV pseudotyped with SARS-CoV-2 spike
Tested at: 10 µM
Time: 16 h
Reference: vehicle-treated
| Compound | GFP-positive cells [%] |
| --- | --- |
| CN(C)CCCN1c2ccccc2Sc2ccccc21 | 50.5 |
| Cc1cn[nH]c1 | 97.3 |
| CC(C(=O)O)c1ccc(-c2ccccc2)c(F)c1 (stereo not drawn) | 105 |
| CCc1cc2c(cc1CC)CC(NC[C@H](O)c1ccc(O)c3[nH]c(=O)ccc13)C2 | 64.8 |

Repeated from above (study 2):
| SMILES | inhibition [%] |
| --- | --- |
| Cc1ccc(-c2csc3ncnc(SCCC(=O)O)c23)cc1 | 3.68 |
| O=C(Nc1cc(-c2ccccc2)nn1-c1ccccc1F)c1ccc([N+](=O)[O-])cc1 | 3.48 |
| Nc1ccn([C@H]2C[C@H](O)[C@@H](CO)O2)c(=O)n1 | -0.94 |
| O=C(O)CCc1c(C(=O)O)[nH]c2cc(Cl)cc(Cl)c12 | 3.67 |
